Measurements of several laboratories.
Each line is one published result; not all experiments were run side by side.

| SMILES | system | setting | measurement | value |
| --- | --- | --- | --- | --- |
| Clc1ccc(C(c2ccccc2Cl)C(Cl)Cl)cc1 (stereo not shown) | human | – | plasma trough concentration | 16 mg/L |
| CC(=O)N[C@@H](C)C(=O)N[C@H]1CSSC[C@@H](C(=O)NCC(=O)N[C@@H](CO)C(=O)NCC(=O)N[C@@H](CO)C(=O)N[C@@H](CC(=O)O)C(=O)N[C@@H](Cc2ccc(O)cc2)C(=O)N[C@@H](CCCCN)C(=O)N[C@@H](CC(=O)O)C(=O)N[C@@H](CC(=O)O)C(=O)N[C@@H](CC(=O)O)C(=O)N[C@@H](CC(=O)O)C(=O)N[C@@H](CCCCN)C(N)=O)NC(=O)[C@H](Cc2ccccc2)NC(=O)[C@@H]2CCCN2C(=O)[C@H](Cc2c[nH]c3ccccc23)NC(=O)[C@H](CC(C)C)NC(=O)[C@H](CC(C)C)NC(=O)[C@H](CC(=O)O)NC(=O)[C@H](Cc2ccccc2)NC(=O)[C@H](Cc2c[nH]cn2)NC(=O)[C@H]([C@@H](C)O)NC(=O)[C@H](Cc2ccccc2)NC1=O | human plasma | 5 h, 37 °C | plasma stability | stable |
| N#C[C@@]1(n2ccc(N)nc2=O)O[C@H](CO)[C@@H](O)[C@H]1O | mouse plasma | 10 µM, 37 °C | plasma stability time | ≥ 2 h |
| CCCCCCCCCCC[C@H](OC1OC[C@H](O)[C@@H](O)[C@@H]1O)[C@H](O)[C@H](O)C[C@@H]1CC(=O)N[C@H](CO)C(=O)N[C@H]([C@H](O)c2ccc(O)cc2)C(=O)N[C@H](CCN)C(=O)NCC(=O)N[C@@H](CC(N)=O)C(=O)N[C@@H](CO)C(=O)N[C@@H]([C@H](O)C(N)=O)C(=O)N1 (stereo partly shown) | New Zealand white rabbit, female, plasma | intravaginal, 1.5 mg gel daily, 0.5 h | plasma concentration | 30.2 ng/mL |
| C=C[C@@H]1C[C@]1(NC(=O)[C@@H]1C[C@@H]2CN1C(=O)[C@H](C(C)(C)C)NC(=O)O[C@@H]1C[C@H]1CCCCCc1nc3ccc(OC)cc3nc1O2)C(=O)NS(=O)(=O)C1CC1 | human K2EDTA plasma | -20 °C | plasma stability | ≥ 397 days |
| CNc1cc[n+](CC(=O)Nc2ccc3c(c2)ncn3-c2c(C)noc2C)cc1.O=C[O-] | human plasma | – | plasma stability | stable |
| CC(c1cncnc1)n1c(=S)[nH]c2ccc(Cl)cc2c1=O (stereo not shown) | mouse plasma | concentration not given | plasma stability | 95 to 98.7% |
| O=C(O)Cc1ccccc1 | human plasma | median, both sexes | plasma concentration | 11.2 µM |
| CC(C)C[C@@H]1NC(=O)[C@H](CC(=O)O)NC(=O)[C@H](Cc2ccccc2)NC(=O)[C@H](Cc2c[nH]cn2)NC(=O)[C@H]([C@@H](C)O)NC(=O)[C@H](Cc2ccccc2)NC(=O)[C@@H](NC(=O)[C@H](C)NC(=O)COCCOCCNC(=O)COCCOCCNC(=O)CC[C@H](NC(=O)CCCCCCCCCCCCCCCCC(=O)O)C(=O)O)CSSC[C@@H](C(=O)O)NC(=O)[C@H](Cc2ccccc2)NC(=O)[C@@H]2CCCN2C(=O)[C@H](Cc2c[nH]c3ccccc23)NC(=O)[C@H](CC(C)C)NC1=O | human plasma | 5 h, 37 °C | plasma stability | stable |
| OCCc1ccc(O)c(O)c1 | human plasma | mean | plasma concentration | 0.029 µM |
| CC[C@H](C)CCCCC(=O)N[C@@H](CCN)C(=O)N[C@H](C(=O)N[C@@H](CCN)C(=O)N[C@H]1CCNC(=O)[C@H]([C@@H](C)O)NC(=O)[C@H](CCN)NC(=O)[C@H](CCN)NC(=O)[C@H](CC(C)C)NC(=O)[C@@H](Cc2ccccc2)NC(=O)[C@H](CCN)NC1=O)[C@@H](C)O | critically ill patients, plasma | intravenous, dose not given, 6 h, steady state, Moderate AUC group, median | plasma concentration at 6 h | 2300 ng/mL |
| CC(=O)c1c(C)c2cnc(Nc3ccc(C4CCN(CCS(C)(=O)=O)CC4)cn3)nc2n(C2CCCC2)c1=O | dog plasma | – | plasma stability t1/2 | > 400 min |
| CC(=O)N[C@@H](C)C(=O)N[C@H]1CSSC[C@@H](C(=O)O)NC(=O)[C@H](Cc2ccccc2)NC(=O)[C@@H]2CCCN2C(=O)[C@H](Cc2c[nH]c3ccccc23)NC(=O)[C@H](CC(C)C)NC(=O)[C@H](CC(C)C)NC(=O)[C@H](CC(=O)O)NC(=O)[C@H](Cc2ccccc2)NC(=O)[C@H](Cc2c[nH]cn2)NC(=O)[C@H]([C@@H](C)O)NC(=O)[C@H](Cc2ccccc2)NC1=O | human plasma | 5 h, 37 °C | plasma stability | stable |

Repeated from above:
| SMILES | system | setting | measurement | value |
| --- | --- | --- | --- | --- |
| Clc1ccc(C(c2ccccc2Cl)C(Cl)Cl)cc1 (stereo not shown) | human | – | plasma trough concentration | 16 mg/L |
